Assay results collected from several papers.
Each line is one published result; not all experiments were run side by side. Numbers after ± are the reported error.
Target: Proteasome Macropain subunit MB1 (PSMB5, Homo sapiens, UniProt P28074)
Sequence of UniProt P28074 (whole entry, looked up): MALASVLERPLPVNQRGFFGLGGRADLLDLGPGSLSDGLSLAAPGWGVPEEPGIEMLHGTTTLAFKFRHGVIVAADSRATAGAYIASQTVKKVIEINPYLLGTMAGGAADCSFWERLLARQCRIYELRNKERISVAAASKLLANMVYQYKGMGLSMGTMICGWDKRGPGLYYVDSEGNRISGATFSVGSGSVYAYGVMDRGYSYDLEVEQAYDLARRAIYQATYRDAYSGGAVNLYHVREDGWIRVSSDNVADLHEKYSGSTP
Action: inhibitor

| Structure (SMILES) | test | system | setting | IC50 |
| --- | --- | --- | --- | --- |
| C=C(NC(=O)C(=C)NC(=O)c1csc(C2=NC3c4csc(n4)C4NC(=O)c5csc(n5)C(C(C)(O)C(C)O)NC(=O)C5CSC(=N5)C(=CC)NC(=O)C(C(C)O)NC(=O)c5csc(n5)C3(CC2)NC(=O)C(C)NC(=O)C(=C)NC(=O)C(=CC)NC(=O)C(C(C)CC)NC2C=Cc3c(C(C)O)cc(nc3C2O)C(=O)OC4C)n1)C(N)=O (centres unmarked) | chymotrypsin-like activity | purified human 20S proteasome | 37 °C, 15 min preincubation, added: Suc-Leu-Leu-Val-Tyr-AMC | 3100 ± 300 nM |
| O=C(N[C@@H](Cc1coc2ccccc12)B(O)O)[C@@H]1C[C@H]2CC[C@@H]1O2 | enzyme activity | human whole blood | 2 h, 37 °C, added: Suc-LLVY-R110 | 13700 nM |
| C=C(NC(=O)C(=C)NC(=O)c1csc(C2=NC3c4csc(n4)C4NC(=O)c5csc(n5)C(C(C)(O)C(C)O)NC(=O)C5CSC(=N5)C(=CC)NC(=O)C(C(C)O)NC(=O)c5csc(n5)C3(CC2)NC(=O)C(Cc2c[nH]c3ccccc23)NC(=O)C(=C)NC(=O)C(C)NC(=O)C(C(C)CC)NC2C=Cc3c(C(C)O)cc(nc3C2O)C(=O)OC4C)n1)C(N)=O (centres unmarked) | chymotrypsin-like activity | purified 20S proteasome | 15 min preincubation, 37 °C, added: Suc-Leu-Leu-Val-Tyr-AMC substrate | > 190 nM |
| C=C(NC(=O)C(=C)NC(=O)c1csc(C2=NC3c4csc(n4)C4NC(=O)c5csc(n5)C(C(C)(O)C(C)O)NC(=O)C5CSC(=N5)C(=CC)NC(=O)C(C(C)O)NC(=O)c5csc(n5)C3(CC2)NC(=O)C(C)NC(=O)C(=C)NC(=O)C(Cc2ccccc2)NC(=O)C(C(C)CC)NC2C=Cc3c(C(C)O)cc(nc3C2O)C(=O)OC4C)n1)C(N)=O (centres unmarked) | chymotrypsin-like activity | purified human 20S proteasome | 37 °C, 15 min preincubation, added: Suc-Leu-Leu-Val-Tyr-AMC | 960 ± 30 nM |
| CCCCCCCCC/C=C/C=C/C(=O)N[C@H](C(=O)N[C@H]1C[C@@H](O)CCNC(=O)/C=C/[C@H](C)NC1=O)[C@@H](C)O | chymotrypsin-like activity | human constitutive proteasome | added: Suc-LLVY-AMC | 2.9 nM |
| CC(C)C[C@@H](/C=C/S(C)(=O)=O)NC(=O)[C@H](CC(C)C)NC(=O)[C@@H](NC(=O)N[C@H](C(=O)OC(C)(C)C)C(C)C)C(C)C | active site labelling, probe competition gel | HEK-293T cell lysate | 1 h, 37 °C, added: activity-based probe 0.5 µM | 230 nM |
| C=C(NC(=O)C(=C)NC(=O)c1csc(C2=NC3c4csc(n4)C4NC(=O)c5csc(n5)C(C(C)(O)C(C)O)NC(=O)C5CSC(=N5)C(=CC)NC(=O)C(C(C)O)NC(=O)c5csc(n5)C3(CC2)NC(=O)C(C(C)C)NC(=O)C(=C)NC(=O)C(C)NC(=O)C(C(C)CC)NC2C=Cc3c(C(C)O)cc(nc3C2O)C(=O)OC4C)n1)C(N)=O (centres unmarked) | chymotrypsin-like activity | purified 20S proteasome | 15 min preincubation, 37 °C, added: Suc-Leu-Leu-Val-Tyr-AMC substrate | 490 ± 30 nM |
| C=C(NC(=O)C(=C)NC(=O)c1csc(C2=NC3c4csc(n4)C4NC(=O)c5csc(n5)C(C(C)(O)C(C)O)NC(=O)C5CSC(=N5)C(=CC)NC(=O)C(C(C)O)NC(=O)c5csc(n5)C3(CC2)NC(=O)C(C)NC(=O)C(=C)NC(=O)C(CCSC)NC(=O)C(C(C)CC)NC2C=Cc3c(C(C)O)cc(nc3C2O)C(=O)OC4C)n1)C(N)=O (centres unmarked) | chymotrypsin-like activity | purified human 20S proteasome | 37 °C, 15 min preincubation, added: Suc-Leu-Leu-Val-Tyr-AMC | 620 ± 10 nM |
| CC(C)C[C@@H](/C=C/S(C)(=O)=O)NC(=O)[C@H](CC(C)C)NC(=O)[C@@H](NC(=O)N[C@H](C(=O)NCc1ccccc1)C(C)C)C(C)C | active site labelling, probe competition gel | HEK-293T cell lysate | 1 h, 37 °C, added: activity-based probe 0.5 µM | 170 nM |
| C=C(NC(=O)C(=C)NC(=O)c1csc(C2=NC3c4csc(n4)C4NC(=O)c5csc(n5)C(C(C)(O)C(C)O)NC(=O)C5CSC(=N5)C(=CC)NC(=O)C(C(C)O)NC(=O)c5csc(n5)C3(CC2)NC(=O)C(CCSC)NC(=O)C(=C)NC(=O)C(C)NC(=O)C(C(C)CC)NC2C=Cc3c(C(C)O)cc(nc3C2O)C(=O)OC4C)n1)C(N)=O (centres unmarked) | chymotrypsin-like activity | purified 20S proteasome | 15 min preincubation, 37 °C, added: Suc-Leu-Leu-Val-Tyr-AMC substrate | > 590 nM |
| C#CCCNC(=O)[C@@H](NC(=O)N[C@H](C(=O)N[C@H]1/C=C/CCNC(=O)/C=C/[C@H](C(C)C)NC1=O)C(C)C)C(C)C | chymotrypsin-like activity | human constitutive proteasome | added: Suc-LLVY-AMC | 10 nM |

Repeated from above:
| Structure (SMILES) | test | system | setting | IC50 |
| --- | --- | --- | --- | --- |
| C=C(NC(=O)C(=C)NC(=O)c1csc(C2=NC3c4csc(n4)C4NC(=O)c5csc(n5)C(C(C)(O)C(C)O)NC(=O)C5CSC(=N5)C(=CC)NC(=O)C(C(C)O)NC(=O)c5csc(n5)C3(CC2)NC(=O)C(C(C)C)NC(=O)C(=C)NC(=O)C(C)NC(=O)C(C(C)CC)NC2C=Cc3c(C(C)O)cc(nc3C2O)C(=O)OC4C)n1)C(N)=O (centres unmarked) | chymotrypsin-like activity | purified 20S proteasome | 15 min preincubation, 37 °C, added: Suc-Leu-Leu-Val-Tyr-AMC substrate | 490 ± 30 nM |
